Measurements from different studies.
Each numbered part is a random draw from the data of one study; scales do not carry over between parts.

Set 1 — method: universal PBM; molecule type: double-stranded DNA, one strand shown; medium: in vitro; concentration: 600 nM; reading: higher = stronger binding
Target: Sal-like protein 4, full length isoform A (SALL4, Homo sapiens, UniProt Q9UJQ4, residues 1-1053)
UniProt Q9UJQ4, sequence (whole entry, looked up): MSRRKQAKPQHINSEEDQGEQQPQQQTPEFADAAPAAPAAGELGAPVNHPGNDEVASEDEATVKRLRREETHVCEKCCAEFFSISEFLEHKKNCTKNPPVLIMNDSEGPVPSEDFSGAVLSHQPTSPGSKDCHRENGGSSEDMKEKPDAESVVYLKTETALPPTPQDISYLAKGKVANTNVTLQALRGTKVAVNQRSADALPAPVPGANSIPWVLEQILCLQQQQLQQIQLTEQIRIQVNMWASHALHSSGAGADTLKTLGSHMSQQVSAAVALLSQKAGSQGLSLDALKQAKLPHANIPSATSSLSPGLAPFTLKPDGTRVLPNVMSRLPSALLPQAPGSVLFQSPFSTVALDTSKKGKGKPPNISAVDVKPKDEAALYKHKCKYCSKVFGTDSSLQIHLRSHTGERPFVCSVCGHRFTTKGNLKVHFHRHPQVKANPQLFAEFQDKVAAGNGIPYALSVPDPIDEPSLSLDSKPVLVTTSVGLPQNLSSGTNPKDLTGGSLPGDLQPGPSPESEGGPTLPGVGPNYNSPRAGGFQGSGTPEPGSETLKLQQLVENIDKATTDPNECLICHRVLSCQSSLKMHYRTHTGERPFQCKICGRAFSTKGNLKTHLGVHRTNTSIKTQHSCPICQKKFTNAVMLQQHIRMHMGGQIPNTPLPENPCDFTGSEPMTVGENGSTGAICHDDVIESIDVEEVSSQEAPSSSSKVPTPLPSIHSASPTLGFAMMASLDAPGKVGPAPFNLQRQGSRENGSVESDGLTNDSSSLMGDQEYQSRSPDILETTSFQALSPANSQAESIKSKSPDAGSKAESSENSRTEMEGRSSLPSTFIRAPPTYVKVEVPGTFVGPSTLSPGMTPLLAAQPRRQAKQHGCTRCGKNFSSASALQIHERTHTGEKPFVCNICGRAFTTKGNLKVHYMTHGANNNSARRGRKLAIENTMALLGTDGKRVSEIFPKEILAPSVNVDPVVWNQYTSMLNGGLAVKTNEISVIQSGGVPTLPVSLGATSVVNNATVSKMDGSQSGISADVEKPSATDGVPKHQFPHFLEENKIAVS
Notes: 8-mer, flanks averaged, mean of replicates
| Sequence | E-score |
| --- | --- |
| CCCAAATC | -0.0101 |
| AGTTTGAC | 0.0121 |
| CGTCCGAA | -0.196 |
| CGGCGCAA | -0.227 |
| ATTGAAAA | 0.321 |

Set 2 — method: RNA Bind-n-Seq; molecule type: RNA; medium: in vitro; concentration: 365 nM; relative to: no-protein control; reading: higher = stronger binding
Target: RNA binding protein fox-1 homolog 2, RRM domain, GST-SBP tag (RBFOX2, Homo sapiens, UniProt O43251-10, residues 100-194)
Notes: natural RNA segment, single round, ends assumed
Residues (chain): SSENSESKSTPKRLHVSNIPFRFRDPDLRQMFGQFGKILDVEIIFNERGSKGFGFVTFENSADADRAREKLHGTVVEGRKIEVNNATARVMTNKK
| Sequence | RBNS enrichment (R) |
| --- | --- |
| GGGAGUUCUACAGUCCGACGAUCGAAGAACACUUUUCUUGGCUACAUUUGGAGGAUACCCAGGGAGUCUUGGGUGUUCCUUAUCUGGGGAAGCAAACAUUUCACUAGUCUCUUUUUUUCAUCCUUUAAAUUGUUGGAAUUCUCGGGUGCCAA | 0.339 |
| GGGAGUUCUACAGUCCGACGAUCACUUUAUGACUUAGUUCUUCAUUUCCUGGGGCCUUAUCUUCACUGUGAACAAUAAAGUUUGAACACAGCGGGGUGUCUUUACUGCAGUGGGUGGGGGCUCAGAGGCACUAUGGAAUUCUCGGGUGCCAA | 0.488 |
| GGGAGUUCUACAGUCCGACGAUCCUUAUUUUGAUAUAGCAUUUGUUUCCUAAAUGUUUACUAAUCACUUUAUGCCAAAUGUCUUGCAGAUGUUAUUUUUAAACUUAACUGAAUUUUUACAAAUAUAAAAAGGAUGGAAUUCUCGGGUGCCAA | 1.42 |
| GGGAGUUCUACAGUCCGACGAUCUUAGGAAGGACCUUCAGUGCAGAUCAGGUGCAGUAAUGGCUUUCUUGUCCCUUAAUUAUUCACCAGACCCAGAAGUUGUACGCAUUUAAUGCUGUUUGUAACCAUGCAUCUGGAAUUCUCGGGUGCCAA | 0.48 |

Set 3 — method: protein-binding microarray; molecule type: double-stranded DNA, one strand shown; medium: in vitro; concentration: 2540 nM top; notes: 60-bp whole probe; with: salmon DNA 0.4 mg/ml; relative to: random background probes; reading: higher = stronger binding; all sequences stand within: GCCTAGCAC … GTCTTGATTCGCTTGACGCTGCTG
Target: Interferon regulatory factor 3, full length, phosphomimetic (IRF3, Homo sapiens, UniProt Q14653, residues 1-427, S386D/S396D/S398D/S402D/T404D/S405D)
UniProt Q14653, sequence (whole entry, unmodified, looked up): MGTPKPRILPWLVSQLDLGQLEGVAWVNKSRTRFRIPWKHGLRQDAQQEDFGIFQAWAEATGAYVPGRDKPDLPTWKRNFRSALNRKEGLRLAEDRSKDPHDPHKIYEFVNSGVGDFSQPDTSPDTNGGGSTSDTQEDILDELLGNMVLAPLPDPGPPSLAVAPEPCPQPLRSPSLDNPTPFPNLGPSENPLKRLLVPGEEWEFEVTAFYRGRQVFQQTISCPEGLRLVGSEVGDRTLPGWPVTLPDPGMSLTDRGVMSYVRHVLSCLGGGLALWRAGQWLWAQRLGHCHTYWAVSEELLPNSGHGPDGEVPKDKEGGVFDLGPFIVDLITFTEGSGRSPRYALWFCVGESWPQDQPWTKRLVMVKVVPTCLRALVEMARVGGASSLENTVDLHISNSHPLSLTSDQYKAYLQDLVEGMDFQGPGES
| Sequence | fitted relative affinity [z-score] |
| --- | --- |
| GACGGTATCTGTCTCGGGACGTGCTAG | 2.46 |
| TTAGAACTGGGGAATCGATTAGTGCTA | -0.566 |
| TTAGGTTTCGGACTGTGTTAGTGCTAG | 4.58 |
| GACGATTACAGTTCCGAGACGTGCTAG | 0.761 |
| CTCTGCTTGTGTCTGGGATTGTGCTAG | -0.521 |
| TTAGCACTGGGACTGGGTTAGTGCTAG | -0.861 |

Further values, each from its own experiment
| Substance | target | test | test system | conditions | how to read | endpoint | value |
| --- | --- | --- | --- | --- | --- | --- | --- |
| PhoQ, residues 284 288 289 292 302 303 GLASVI | PhoP, residues 12 14 15 18 19 SEGLL (Escherichia coli, UniProt P23836) | Sort-seq, refers to: YFP reporter | E. coli | PhoQ-PhoP variant library, with: 10 µM Mg2+ | relative to: high Mg2+ state, higher = stronger signaling | fold induction | 15.5 |

A few entries again (further values, each from its own experiment):
| Substance | target | test | test system | conditions | how to read | endpoint | value |
| --- | --- | --- | --- | --- | --- | --- | --- |
| PhoQ, residues 284 288 289 292 302 303 GLASVI | PhoP, residues 12 14 15 18 19 SEGLL (Escherichia coli, UniProt P23836) | Sort-seq, refers to: YFP reporter | E. coli | PhoQ-PhoP variant library, with: 10 µM Mg2+ | relative to: high Mg2+ state, higher = stronger signaling | fold induction | 15.5 |
